Results from different studies.
Every numbered part comes from another study and shows a few of its results, in no order.

Block 1
Target: Centromere-binding protein 1, full length, His-tagged (CBF1, Saccharomyces cerevisiae, UniProt P17106, residues 1-351)
UniProt P17106, sequence (whole entry, looked up): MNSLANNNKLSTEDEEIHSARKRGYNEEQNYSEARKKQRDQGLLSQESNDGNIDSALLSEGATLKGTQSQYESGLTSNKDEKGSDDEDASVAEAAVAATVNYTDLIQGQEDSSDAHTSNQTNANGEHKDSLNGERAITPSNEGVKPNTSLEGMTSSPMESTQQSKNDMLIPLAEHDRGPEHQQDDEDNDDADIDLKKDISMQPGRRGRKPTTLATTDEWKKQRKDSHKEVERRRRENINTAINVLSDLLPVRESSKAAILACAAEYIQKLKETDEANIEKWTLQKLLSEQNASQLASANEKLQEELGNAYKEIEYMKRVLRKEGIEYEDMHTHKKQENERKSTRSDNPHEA
Method: competition protein-binding microarray
Form: double-stranded DNA, one strand shown
Sample: in vitro
Tested at: 2 µM
Notes: whole 60-bp probe, lowest competitor level
With: Pho4 competitor, 0.05 µM
Direction: higher = stronger binding
All sequences stand within: … GTCTTGATTCGCTTGACGCTGCTG
| Strand | fluorescence intensity [a.u.] |
| --- | --- |
| CGTCCTAGTGATTGCAGTGTGGGTGCCATGAGGAAG | 97 |
| ATTTCGATGTACATCCTCGTGATGGTAAATATGGCC | 456 |
| GTCTTGTCTCATTGTCACGCGACTTTCCCCACTTCA | 560 |
| CGGGGTTAAGTTTGCGTAGTGGGTGGCTTGCAGCAG | 65.7 |
| TGCGCAACAACTTGTGCCGTGGGTGTATGTCTAGAA | 73.1 |
| AAGATAAAAAACGGAAACGTGCTTTTTTAATTTAAT | 248 |
| TTGGGGTTTATATCGCACGCTTATATTTGGGCCAGC | 98.3 |
| CTTTCCCGATCTTGTCACGCCACTTTAGCACATTTG | 349 |
| CTTCTGTAAATTTGGGGCGTGGGTGGACGCGCCCCG | 88.4 |
| CCAAGGCAGCCTCACCACGGGCGGTCTTGTGGGAAA | 46.1 |
| TGCGCAACAACTTGCTGGGTGGGTGTATGTCTAGAA | 63.1 |
| GCCCATTAAAAATAATATGTGTGAGCTTCTTCCACA | 76.6 |
| AAAGCGGTAATTTGTGAAGTGGGTGCAGATATCTAT | 79.6 |
| GTTACCATTGTCCATCACGATCAAGAAACTCGCTGT | 74 |
| CTAACGAAGGTTTATCACGTGTTTTACAAGCCAAGT | 4460 |
| AACCTTACAAAAAATCACATGACAACCTAACAAAAT | 1740 |
| AAGCCAAAGAAACAGCATGTGGTTCAGCGGCCTTGC | 75 |
| CGTCCTAGTGATTTTCACGTGCGTTCCATGAGGAAG | 871 |
| AGGGATACCGCTACCCACGTACCCCAAGACCAGCCC | 57.1 |

Block 2
Target: Cellular tumor antigen p53, full length (TP53, Homo sapiens, UniProt P04637, residues 1-393)
Method: protein-binding microarray
Form: hairpin DNA
Sample: in vitro
Tested at: not given
Notes: whole hairpin DNA, median over replicate spots
Reference: not given
Direction: higher = stronger binding
| Strand | median fluorescence |
| --- | --- |
| CCACCGGTGGTGGCATGCCTTCCTAGGCATGCCACCACCGGTGGACACTC | 6990 a.u. |
| CGGACATGCCCGGCGATGTCTCCTGACATCGCCGGGCATGTCCGACACTC (5mC at 30) | 11100 a.u. |
| CCACACGTGGTCGCATGCCTTCCTAGGCATGCGACCACGTGTGGACACTC | 5260 a.u. |
| CCACACGTGGTGGCGTGCCTTCCTAGGCACGCCACCACGTGTGGACACTC (5mC at 14 30) | 4980 a.u. |
| CGGACATGCCCGTGCATGTCTCCTGACATGCACGGGCATGTCCGACACTC | 16200 a.u. |
| CCACACGTGGTGCGATGCCTTCCTAGGCATCGCACCACGTGTGGACACTC | 4560 a.u. |
| CGGACAGGCCCGGGCATGTCTCCTGACATGCCCGGGCCTGTCCGACACTC | 16700 a.u. |
| CCACACGTGGTGGGATGCCTTCCTAGGCATCCCACCACGTGTGGACACTC (5mC at 31) | 4090 a.u. |
| CGGACATGCCCGGGCATGTCTCCTGACATGCCCGGGCATGTCCGACACTC (5mC at 9) | 21300 a.u. |
| CCACACGTGGTCGCATGCCTTCCTAGGCATGCGACCACGTGTGGACACTC (5mC at 32) | 5930 a.u. |
| CGGACATGCCGGGGCATGTCTCCTGACATGCCCCGGCATGTCCGACACTC | 17700 a.u. |
| CCACACGTGGTGGCCTGCCTTCCTAGGCAGGCCACCACGTGTGGACACTC | 3910 a.u. |
| CCACGCGTGGTGGCATGCCTTCCTAGGCATGCCACCACGCGTGGACACTC (5mC at 4 40) | 7780 a.u. |
| CGGACCTGCCCGGGCATGTCTCCTGACATGCCCGGGCAGGTCCGACACTC (5mC at 6) | 15200 a.u. |

Block 3
Target: RNA binding protein fox-1 homolog 2, RRM domain, GST-SBP tag (RBFOX2, Homo sapiens, UniProt O43251-10, residues 100-194)
Method: RNA Bind-n-Seq
Form: RNA
Sample: in vitro
Tested at: 365 nM
Notes: natural RNA segment, single round, ends assumed
Reference: no-protein control
Direction: higher = stronger binding
All sequences stand within: GGGAGUUCUACAGUCCGACGAUC … UGGAAUUCUCGGGUGCCAA
Target sequence (chain): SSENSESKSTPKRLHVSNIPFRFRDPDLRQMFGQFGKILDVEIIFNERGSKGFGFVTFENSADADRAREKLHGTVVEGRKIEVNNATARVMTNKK
| Strand | RBNS enrichment (R) |
| --- | --- |
| GGGAGGGGAAGUUGCAUACAAAGAUAUAUAUCCAAGUUUCCGAAGUAGAGUUUUUAGAUUACUUUUUCAAUGUAAAUAAUGUAUAUUUAAUGUCACAAGAAAUUGUUUUC | 0.817 |
| UUACCUUGCAGUGGUGUUGACUCUUUUAUAGACUGUCUUUAGCAUUGUGCAAUUUAAGAAUAACUUAAGGAUCUUGGACUUUACAUAAAUCUUGAAUUGUAUAAACUCUA | 0.376 |
| CUGCCGCCUCAAUGUGGUUGCAAGGCCGCUGUUCACCCACAGGGCUAAGAGCUAGCGCUGCCGCACCCCAGAGUGUGGGAAGGGAGAGCGGGGCAGUCUCGGGUGGCUAG | 0.475 |
| AUUUCUAUUUUUCACACCAUCACAGGACAAACCAAAGUCAACUGAAAUAAAUGACAGUUUCCAUCCCAUUCACAGAUCUGUUUGUUCGCUGAGGGAUUGUGAUCUGACUC | 0.506 |
| CGAGUGGGGCGCGUUUGUUCCUCACCCACGCGCGUGGGGAUCCCCUCGCCACAGGGAAGCACAAGAACCCCCUCCAUCCCGGAGGAUGCAGGACACGAAGCCCCGGGGUG | 0.273 |
| CUAUCUAUAUAAUGUAGUAUGAUGUAAUGUGGUCUUUUUUUUAGAUUUUGUGCAGUUAAUACUUAACAUUGAUUUAUUUUUUAAUCAUUUAAAUAUUAAUCAACUUUCCU | 0.701 |
| AGGUCCCUUCUCUUGAGACUCCCCUCUGAGAUCUGAAAAAUGAAGUGGCUUAGGAACAUCAGCAGUGAAGAACUGCCAAGAGUUGGUGAAGGUUGUCUCUUCCGAGGGCC | 0.361 |
| AGUUUUUAAAAUGCUUACUACAUACUUAUAUACACCCCUUGUGAAGAACACAUGACUUUUUAAAGAAAAUUACUAAGCAAACUGGAAAAGUGAAGUAUUUUCAUAGUGAU | 0.472 |

Block 4
Target: Sal-like protein 4, full length isoform A (SALL4, Homo sapiens, UniProt Q9UJQ4, residues 1-1053)
UniProt Q9UJQ4, sequence (whole entry, looked up): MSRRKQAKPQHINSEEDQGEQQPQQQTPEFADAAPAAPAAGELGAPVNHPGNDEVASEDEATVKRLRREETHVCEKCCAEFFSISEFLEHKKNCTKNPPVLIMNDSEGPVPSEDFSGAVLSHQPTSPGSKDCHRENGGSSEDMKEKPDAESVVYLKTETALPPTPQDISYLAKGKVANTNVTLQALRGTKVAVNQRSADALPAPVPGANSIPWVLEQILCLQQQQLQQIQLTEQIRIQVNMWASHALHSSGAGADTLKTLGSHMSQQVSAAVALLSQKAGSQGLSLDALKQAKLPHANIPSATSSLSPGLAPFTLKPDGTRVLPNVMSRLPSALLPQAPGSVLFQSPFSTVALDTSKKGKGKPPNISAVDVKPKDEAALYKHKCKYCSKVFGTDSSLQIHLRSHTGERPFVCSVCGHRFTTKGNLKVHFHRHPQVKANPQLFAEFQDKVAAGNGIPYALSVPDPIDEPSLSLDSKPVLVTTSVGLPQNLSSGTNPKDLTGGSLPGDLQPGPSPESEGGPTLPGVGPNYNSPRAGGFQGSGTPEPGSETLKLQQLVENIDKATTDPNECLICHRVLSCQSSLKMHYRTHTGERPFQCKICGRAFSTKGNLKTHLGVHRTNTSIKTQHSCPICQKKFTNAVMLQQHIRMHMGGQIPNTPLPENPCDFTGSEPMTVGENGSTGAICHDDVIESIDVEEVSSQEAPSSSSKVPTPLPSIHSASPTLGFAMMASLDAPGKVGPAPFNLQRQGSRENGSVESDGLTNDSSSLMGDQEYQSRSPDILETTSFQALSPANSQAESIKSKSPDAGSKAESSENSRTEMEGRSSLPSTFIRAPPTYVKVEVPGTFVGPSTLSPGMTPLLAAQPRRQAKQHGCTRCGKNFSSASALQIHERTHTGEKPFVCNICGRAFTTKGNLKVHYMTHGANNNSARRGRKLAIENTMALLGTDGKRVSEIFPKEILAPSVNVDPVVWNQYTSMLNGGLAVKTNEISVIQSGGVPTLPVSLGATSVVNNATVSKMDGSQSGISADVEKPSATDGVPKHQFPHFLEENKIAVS
Method: universal PBM
Form: double-stranded DNA, one strand shown
Sample: in vitro
Tested at: 600 nM
Notes: 8-mer, flanks averaged, mean of replicates
Direction: higher = stronger binding
| Strand | E-score |
| --- | --- |
| AATTTACC | 0.129 |
| CGATCAGC | -0.148 |
| AGTGCATA | 0.167 |
| CGATCGGC | -0.0677 |
| AGCTTGGG | -0.231 |
| GTGAAAAC | -0.0444 |
| ACTCGCCC | -0.34 |
| CACAGCTC | -0.194 |
| CGCGCATC | -0.0632 |
| AGCTGGAG | -0.171 |
| ACATTCGT | 0.123 |
| ACACCGCA | -0.165 |
| CTTGGCGA | -0.318 |
| GAGACCTA | -0.147 |
| CTGGACTC | -0.0583 |
| CGTGGTAG | -0.249 |
| AAACTCAG | 0.109 |
| ACCTACTC | 0.00487 |

Excerpt of the above (block 1):
| Strand | fluorescence intensity [a.u.] |
| --- | --- |
| AAGATAAAAAACGGAAACGTGCTTTTTTAATTTAAT | 248 |
| TTGGGGTTTATATCGCACGCTTATATTTGGGCCAGC | 98.3 |
| CTTTCCCGATCTTGTCACGCCACTTTAGCACATTTG | 349 |
| CTTCTGTAAATTTGGGGCGTGGGTGGACGCGCCCCG | 88.4 |
| CCAAGGCAGCCTCACCACGGGCGGTCTTGTGGGAAA | 46.1 |
| TGCGCAACAACTTGCTGGGTGGGTGTATGTCTAGAA | 63.1 |
